Measured values gathered from unrelated publications.
Protocols differ between the studies behind these lines. Several values in a cell are separate wells, animals, samples, runs or records. ± gives the spread as reported.

Compound	cell line	test	setting	scale	endpoint	result
COC1CCN(C(=O)/C=C/c2nn(Cc3cccc(C(F)(F)F)c3)c3nc(NC(C)(C)C)ncc23)CC1	OE33	cell growth or viability, resazurin	5 days	–	EC50	> 30 µM
O=C(N1CCCC1)n1cc(-c2ccc(-c3ccccc3)cc2)nn1	mouse T cells	N-terminal labelling proteomics, refers to: Ndufv2 N-terminal peptide	0.001 µM, 6 h	relative to: DMSO	SILAC ratio per peptide	1.25 and 0.99
CC(=O)N[C@@H](CC(=O)O)C(=O)N[C@@H](CCC(=O)O)C(=O)N[C@@H](CCC(=O)O)C(=O)N[C@H](C(=O)NCC(=O)N[C@@H](CCC(=O)O)C(=O)N[C@@H](Cc1ccc(O)cc1)C(=O)O)[C@@H](C)O	HaCaT	western blot	concentration not given, together with: UVA	–	AP1 phosphorylation	inhibited
C[C@@H]1CC[C@@H]([C@@](O)(CNCc2cccc(F)c2)COCc2ccccc2)[C@H](OCc2ccccc2)C1	A2780	cell growth or viability, MTT	30 µM, 72 h	–	inhibition	95.3%
CC12CCCC(NS(=O)(=O)c3ccc(C#N)cc3)(C1)C1CC(C)(C)C1CC2 (stereo not drawn)	HT-29	cell growth or viability, CCK-8	50 µM	–	inhibition	83.8%
Cn1ncc2cc(-c3cncc(Cl)c3N3CCC4(CCNC4=O)CC3)ccc21	LS174T	microarray, refers to: NFE2L2	concentration not given, 4 h, gene set NRF2	relative to: untreated cells	fold change in expression	-1.24
CC(=O)N1C[C@H](O)C[C@H]1C(=O)N[C@H](C(=O)N[C@@H](CO)C(=O)N[C@@H](CC(=O)O)C(=O)COC(=O)c1c(C)cccc1C)C(C)C	THP-1 cells, LPS-primed	pyroptosis, LDH release	25 µM, LPS 1 µg/mL, 4 h, together with: nigericin 5 µM, 2 h	–	cell lysis	68.5% and 48.8%
CC12CCCC(NC(=O)c3ccc(F)cc3F)(C1)C1CC(C)(C)C1CC2 (stereo not drawn)	HT-29	cell growth or viability, CCK-8	10 µM	–	inhibition	< 50%
CCC(=CCc1c(O)cc2c(c1O)C(=O)CC(c1ccccc1O)O2)CC (stereo not drawn)	HeLa	cell growth or viability, MTT	30 µM, 48 h	–	inhibition	39.1%
CN1CC[C@@H](COc2cnc(C#N)cc2-c2ccn3nc(NC(=O)C4CC4)cc3c2)C1	human PBMC, CD4 T cells	single-cell RNA-seq	1 µM, together with: LPS	relative to: LPS alone	number of downregulated genes	30 genes
Cc1ncsc1-c1ccc(C(C)NC(=O)C2CC(O)CN2C(=O)C(NC(=O)CCCCCCCCCCN2CCCC(Nc3ncc(Cl)c(Nc4ccccc4S(=O)(=O)C(C)C)n3)C2)C(C)(C)C)cc1 (stereo not drawn)	22Rv1	RNA-seq, refers to: N4BP3 mRNA	concentration not given	relative to: DMSO	log2 fold change	-1.42
O=C(C[Se]C(=O)C12CC3CC(CC(C3)C1)C2)Nc1cccc(C(F)(F)F)c1	NCI60 NSCLC subpanel mean	cell growth	–	–	TGI	8.74 µM
CN1CCCNC(=O)c2cccc(c2)C(=O)NCCCN(C)CCCNc2cccc3c2C(=O)c2cccc(c2C3=O)NCCC1	SAS	RNA-Seq, refers to: VRK1 mRNA	1 µM, 6 h	relative to: untreated cells	log2 fold change	0.464
O=S(=O)(N[C@H]1CCO[C@@H](C2c3ccc(F)cc3CCc3cc(F)ccc32)C1)c1ccc(OC(F)(F)F)cc1	D425	immunoblot, refers to: AKT	concentration not given	–	phosphorylation level	decreased
CNS(=O)(=O)Nc1nccc(Cc2c(C)c3ccc(Oc4ncccc4F)cc3oc2=O)c1F	LCLC-103H	cell viability	7 days	–	IC50	> 1 µM
COc1cc(N2CCN(C(=O)CCOCCNC(=O)[C@@H]3CCCN3)CC2)ccc1Nc1ncc(Cl)c(Nc2ccccc2P(C)(C)=O)n1	NCI-H3122	flow cytometry	500 nM, 24 h	–	S phase cells	30%
COc1ccc(C2CC(=O)c3c(cc(O)c(CC=C(C)C)c3O)O2)cc1 (stereo not drawn)	HeLa	cell growth or viability, MTT	50 µM, 48 h	–	inhibition	22%
O=c1cc(Cn2ccnc2)c2cc(O)ccc2o1	COS-7 (untransfected)	–	500 µM, unit not given	relative to: 3 µM ionomycin	calcium mobilisation signal	0.44 ± 0.65

Repeated from above:
Compound	cell line	test	setting	scale	endpoint	result
CN1CCCNC(=O)c2cccc(c2)C(=O)NCCCN(C)CCCNc2cccc3c2C(=O)c2cccc(c2C3=O)NCCC1	SAS	RNA-Seq, refers to: VRK1 mRNA	1 µM, 6 h	relative to: untreated cells	log2 fold change	0.464
O=C(C[Se]C(=O)C12CC3CC(CC(C3)C1)C2)Nc1cccc(C(F)(F)F)c1	NCI60 NSCLC subpanel mean	cell growth	–	–	TGI	8.74 µM
Cn1ncc2cc(-c3cncc(Cl)c3N3CCC4(CCNC4=O)CC3)ccc21	LS174T	microarray, refers to: NFE2L2	concentration not given, 4 h, gene set NRF2	relative to: untreated cells	fold change in expression	-1.24
